Measured values collected from several papers.
A part holds a random share of what one study measured. Substitutions count along the parent as printed.

Block 1
Target: ABI1, truncated, D143A, DHFR fusion (Arabidopsis thaliana)
Method: DHFR PCA, deep sequencing
Sample: yeast
Notes: methotrexate growth selection, single substitutions
With: (+)-ABA 0.39 µM
Relative to: wild-type fitted maximum
Direction: higher = stronger binding
Endpoint: relative binding score
Parent: PYL1, truncated, DHFR fusion (Arabidopsis thaliana); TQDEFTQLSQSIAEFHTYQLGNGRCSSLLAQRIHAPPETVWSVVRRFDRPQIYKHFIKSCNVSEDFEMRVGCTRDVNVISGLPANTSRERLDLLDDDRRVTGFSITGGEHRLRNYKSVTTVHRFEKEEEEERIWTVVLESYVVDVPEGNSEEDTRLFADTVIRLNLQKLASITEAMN
S42C: 9.1%
D96F: -13.7%
N149K: 9.85%
L164V: 36.8%
V143M: -16.5%
F124G: 5.16%
R111P: 20.7%
K126N: 64.9%
S80P: -1.21%
R113N: 18.2%
I57K: 25.1%
Q7D: 37.3%
W134E: 51.4%
V44D: -9.06%
A175S: 39.4%
Y115E: -10%
K168N: 75.9%
L94N: -7.64%
V43P: -4.81%
D48A: -0.989%

Block 2
Target: CCNB2, cyclin fold, Cln2 fusion (human)
Method: yeast growth competition, sequencing
Sample: yeast
Notes: weak parent motif
Relative to: not given
Direction: higher = stronger binding
Endpoint: normalised enrichment score
Parent: SCAPER docking peptide (human); SNARRSLNFGGST
N8R: 0.505
L7A: 0.772
G11H: -0.0628
R4I: -0.0556
N2H: 0.202
S12N: 0.963
A3H: 0.0866
T13Q: 0.0659
N2D: -0.129
F9D: 0.223
R5D: 0.143
R4A: -0.0232
S6N: 0.226

Block 3
Target: MAFG, bZIP domain (human)
Method: DHFR protein complementation
Sample: yeast
Notes: single substitutions, most at no-binding floor
Relative to: wild-type JUN-FOS pair
Direction: higher = stronger binding
Endpoint: binding fitness
Parent: JUN, bZIP domain (human); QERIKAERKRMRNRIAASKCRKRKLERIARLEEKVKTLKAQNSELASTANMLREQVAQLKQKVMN; partner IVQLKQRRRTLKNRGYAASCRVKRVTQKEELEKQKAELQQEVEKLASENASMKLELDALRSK
S47A: -1.33 natural log
T48P: -1.54 natural log
L31I: -1.49 natural log
R53W: -1.42 natural log
E33P: -1.49 natural log
A29F: -1.38 natural log
Q41D: -1.51 natural log
E54H: -1.2 natural log
Q41F: -1.48 natural log
K39V: -1.45 natural log
N42P: -1.45 natural log
L52Q: -1.51 natural log
A49V: -1.15 natural log
V56A: -1.5 natural log
A46K: -1.5 natural log

Other studies, line by line
PhoQ, residues 284 288 289 292 302 303 AEGLLW
fold induction (PhoP, residues 12 14 15 18 19 SMASL (Escherichia coli, UniProt P23836); Sort-seq, item: YFP reporter; E. coli; PhoQ-PhoP variant library, with: 10 µM Mg2+; relative to: high Mg2+ state, higher = stronger signaling): 4.61

Some of these lines once more (block 3):
E54H: -1.2 natural log
Q41F: -1.48 natural log
K39V: -1.45 natural log
N42P: -1.45 natural log
L52Q: -1.51 natural log
A49V: -1.15 natural log
